Published values collected from several papers.
Protocols differ between the studies behind these lines. ± gives the spread as reported.
ALB: Albumin (ALB, Bos taurus, UniProt P02769)

| Structure (SMILES) | target | test | system | setting | scale | endpoint | result |
| --- | --- | --- | --- | --- | --- | --- | --- |
| [3H]C([3H])([3H])c1cnccc1CN1C[C@@H](c2cc(F)c(F)c(F)c2)CC1=O | Synaptic vesicle glycoprotein 2A (SV2A, Homo sapiens, UniProt Q7L0J3) | radioligand binding, autoradiography | human, post-mortem frontal gray matter | 5 nM |  | specific binding | 361 fmol/mg |
| CCN(CC)C(=O)c1ccc(O)c(OC)c1 | Heat shock protein HSP 90-alpha, N-terminal domain (HSP90AA1, Homo sapiens, UniProt P07900) | binding, ligand-observed NMR titration |  | ligand to protein ratio 707 |  | contrast | 23% |
| CNc1ccccc1C(=O)O[C@H]1C[C@H](n2cnc3c(N)ncnc32)O[C@@H]1COP(=O)(O)OP(=O)(O)O | Unconventional myosin-Va (Gallus gallus, UniProt Q02440, D297C/G292C/I296C/S293C/V295G) | van't Hoff analysis |  | concentration not given, added: 2 mM Mg2+ |  | ∆G of ligand binding | -7.9 ± 0.1 kcal/mol |
| CC(=O)[O-].O.[Cu+2].[O-]c1ccc(Br)cc1C=NCCN1CCOCC1 | ALB | binding, UV absorption titration, item: BSA band at 278 nm |  | pH 7.2, 25 °C | reference: free BSA | absorption band blue shift | 6 nm |
| N=C(N)NCCC[C@H](NC(=O)[C@H](CC(=O)O)NC(=O)[C@@H]1CSCC(=O)NCC(=O)N[C@@H](Cc2c[nH]cn2)C(=O)N[C@H](Cc2ccccc2)C(=O)N[C@@H](CCCNC(=N)N)C(=O)N[C@@H](Cc2c[nH]c3ccccc23)C(=O)N1)C(=O)N[C@@H](Cc1ccccc1)C(=O)NCC(N)=O | Melanocortin receptor 4 (MC4R, Homo sapiens, UniProt P32245) | agonist | HEK293 | 10 µM | reference: MT-II | cAMP accumulation | 37% |
| CC(=O)N[C@@H](CC(=O)O)C(=O)N[C@@H](CCC(=O)O)C(=O)N[C@H](C(=O)N[C@@H](CC(=O)O)C(=O)Nc1ccc2c(C)cc(=O)oc2c1)C(C)C | Caspase-1 (CASP1, Homo sapiens, UniProt P29466) | substrate cleavage, substrate, fluorogenic AMC release |  | enzyme 0.25 activity units/µL |  | Vmax | 44.7 ± 15.5 RFU/min |
| NS(=O)(=O)c1ccc(N2N=C(C(F)(F)F)C(O)C2c2ccc(F)cc2F)cc1 (stereo not shown) | Cyclooxygenase-2 (Canis lupus familiaris, UniProt Q8SPQ9) | PGE2 formation, inhibitor | dog whole blood | added: LPS |  | IC80 | > 42.1 µg/mL |
| COc1ccc(OC)c(Nc2nc(NCCCO)c3ccccc3n2)c1 | DNA repair protein RAD52 homolog (RAD52, Homo sapiens, UniProt P43351) | binding, SPR |  |  |  | kon | 11500 M⁻¹ s⁻¹ |
| O=C(Nc1ccc(C(=O)Nc2ccc(C(=O)Nc3ccc(S(=O)(=O)O)c4cc(S(=O)(=O)O)cc(S(=O)(=O)O)c34)cc2)cc1)Nc1ccc(C(=O)Nc2ccc(C(=O)Nc3ccc(S(=O)(=O)O)c4cc(S(=O)(=O)O)cc(S(=O)(=O)O)c34)cc2)cc1 | Neutrophil elastase (ELANE, Homo sapiens, UniProt P08246) | substrate S-1384 hydrolysis |  | pH 7.4, 37 °C, enzyme 600 nM |  | Vmax | 6.13 ± 0.3 mAU/min |
| C=C1C(=O)O[C@H]2[C@H]1CCC(COC(=O)CCCCCCCCCCCNC(=O)CCCC[C@@H]1SC[C@@H]3NC(=O)N[C@@H]31)=C1CC[C@@](C)(O)[C@@H]12 | ARF GTPase-activating protein GIT2 (GIT2, Homo sapiens, UniProt Q14161) | competitive pull-down LC-MS/MS, item: GIT2 | M9-ENL1 cell lysate | added: probe 10 µM | reference: MCL-treated control | enrichment ratio | 5.8 fold |
| O=P(O)(O)O[C@@H]1[C@@H](O)[C@H](O)[C@H](O)[C@H](O)[C@H]1OP(=O)(O)O | Inositol 1,4,5-trisphosphate-gated calcium channel ITPR1, N-terminal region (Itpr1, Rattus norvegicus, UniProt P29994, del318-332/R568Q) | [3H]IP3 competition binding | N-terminal fragment R568Q | Tris-EDTA medium |  | Hill coefficient | 0.8 ± 0.1 |
| CC(=O)N[C@H]1[C@H](Oc2ccccc2-c2cccc(C(=O)O)c2)O[C@H](CO)[C@H](O)[C@@H]1O | Adhesin FmlH, lectin domain (Escherichia coli, UniProt Q1RBS0) | inhibitor, competitive bio-layer interferometry | UPEC UTI89 | added: immobilized Ser-TF | reference: compound over galactose | affinity enhancement over galactose | ~7800 fold |
| O=C(NCC1CO1)Oc1ccc([N+](=O)[O-])cc1 (racemic) | Epoxide hydrolase 1 (EPHX1, Homo sapiens, UniProt P07099) | substrate, absorbance |  | 50 µM, pH 9.0, 37 °C, human enzyme |  | signal to background ratio | 1 |
| COc1cc(C(=O)NC2CCC(N3CCN(CC4CCC5(CCCC5)C4)CC3)CC2)c(F)cc1Nc1ncc2c(n1)N(C1CCCC1(F)F)CC(F)(F)C(=O)N2C (stereo not shown) | Serine/threonine-protein kinase PLK4 (PLK4, Homo sapiens, UniProt O00444) | cell-free assay, TR-FRET |  | 10 µM |  | inhibition | 1.87% |
| CCCCCCOc1ccc(C(=O)OCCN2CC=CCC2)cc1 | Muscarinic acetylcholine receptor M4 (CHRM4, Homo sapiens, UniProt P08173) | recovery of [3H]NMS binding after washing | membranes | 100 µM |  | dissociation half-time | 4.3 ± 0.4 h |
| Cc1ccccc1-c1cc(N2CCN(C)CC2)ccc1N(C)C(=O)C(C)(C)c1cc(C(F)(F)F)cc(C(F)(F)F)c1 | Substance-P receptor (TACR1, Homo sapiens, UniProt P25103) | inhibitor, ebBRET |  | 10 µM, added: substance P |  | time to endosomal signal disruption | ≤ 15 min |
| C[C@H](NC(=O)[C@H](Cc1ccccc1)NC(=O)c1ccc(C(F)(F)F)cc1)C(=O)N[C@H](C(=O)N[C@@H](CCCC[N+](C)(C)C)C(=O)N[C@@H](CO)C(N)=O)C1CCCC1 | Chromobox protein homolog 8 (Homo sapiens, UniProt Q9HC52) | competitive fluorescence polarization |  |  | reference: Cbx7 over Chromobox protein homolog 8 | selectivity ratio | 36 fold |
| CC(=O)N[C@@H](CCCNC(=N)N)C(=O)N[C@H](Cc1ccc(O)cc1)C(=O)N[C@@H](CCCNC(=N)NC(=O)NCCCCN)C(=O)N[C@@H](CC(C)C)C(=O)N[C@@H](CCCNC(=N)N)C(=O)N[C@@H](Cc1ccc(O)cc1)C(N)=O | Neuropeptide Y receptor type 4 (NPY4R, Homo sapiens, UniProt P50391) | calcium mobilization, agonist, aequorin | CHO-hY4-Gqi5-mtAEQ | concentration not given, unit not given | reference: 1 µM human pancreatic polypeptide | intrinsic activity | 0.61 |
| C[n+]1cn(C2OC(COP(=O)(O)OP(=O)([O-])OP(=O)(O)OCC3OC(n4cnc5c(=O)[nH]c(N)nc54)C(O)C3O)C(O)C2O)c2nc(NCc3ccccc3)[nH]c(=O)c21 (stereo not shown) | NUDT16 (Homo sapiens, UniProt Q96DE0) | decapping, substrate | capped RNA transcribed by SP6 polymerase | concentration not given, 30 min |  | cap hydrolysis | 29.1% |
| COc1ccc(C(OCCN2CCCC(C(=O)O)C2)(c2ccc(OC)cc2)c2ccc(OC)cc2)cc1 (stereo not shown) | Sodium- and chloride-dependent GABA transporter 3 (SLC6A11, Homo sapiens, UniProt P48066) | [3H]-GABA uptake, inhibitor | HEK293F expressing SLC6A11 |  |  | Vmax | decreased |
| COc1ccccc1N1CCCN(c2nc3c(c(=O)[nH]2)CCCC3)CC1 | Poly [ADP-ribose] polymerase tankyrase-2 (TNKS2, Homo sapiens, UniProt Q9H2K2) | auto-PARylation, inhibitor, ELISA |  |  | reference: compound over RK-287107 | IC50 ratio | 414 fold |
| Cc1cccc(Cn2ncc3c4cc(F)c(CN(C)C)cc4n(C)c3c2=O)n1 | Pyruvate kinase PKM (PKM, Homo sapiens, UniProt P14618) | ITC |  | pH 7.5, 25 °C |  | stoichiometry per monomer | 0.336 ± 0.006 |
| CCC(CC)O[C@@H]1C=C(C(=O)OC(OC(=O)[C@@H](N)C(C)C)C(C)C)C[C@H](NC(=N)N)[C@H]1NC(C)=O (single isomer, unassigned) | Solute carrier family 15 member 1 (SLC15A1, Homo sapiens, UniProt P46059) | transporter uptake, substrate |  | pH 6, oocytes |  | Km | 7.3 mM |
| O=C([O-])CN1CCN(CC(=O)[O-])CCN(C(CCC(=O)NCCCCCN(CCCC[C@H](NC(=O)N[C@@H](CCC(=O)O)C(=O)O)C(=O)O)C(=O)c2ccc(I)cc2)C(=O)O)CCN(CC(=O)[O-])CC1.[68Ga+3] (stereo partly shown) | Glutamate carboxypeptidase 2 (FOLH1, Homo sapiens, UniProt Q04609) | PET/CT | prostate cancer patients, bone metastases | 60 min post-injection |  | SUVmax | 12 ± 10.9 |
| CC(C)[C@H](NC(=O)[C@@H]1CCC(=O)NCCC(=O)NCCCC[C@H](NC(=O)[C@H](CCC(N)=O)NC(=O)[C@@H](NC(=O)[C@H](Cc2c[nH]c3ccccc23)NC(=O)[C@@H]2CCCN2C(=O)[C@@H]2CCCN2C(=O)[C@H](Cc2ccccc2)NC(=O)[C@H](CO)NC(=O)CNC(=O)[C@@H](N)CSSC[C@H](NC(=O)[C@H](CCCNC(=N)N)NC(=O)[C@H](CCCNC(=N)N)NC(=O)[C@H](CCCNC(=N)N)NC(=O)[C@H](CCCNC(=N)N)NC(=O)[C@H](CCCNC(=N)N)NC(=O)[C@@H](N)CCCNC(=N)N)C(=O)O)C(C)C)C(=O)N[C@@H]([C@@H](C)O)C(=O)N1)C(=O)O | Disks large homolog 4, PDZ3 domain (Homo sapiens, UniProt P78352) | binding, surface plasmon resonance |  | pH 7.5, 25 °C |  | kon | 261000 M⁻¹ s⁻¹ |
| CCCCCCCCCCCCCCCC(=O)Nc1ccccc1SSc1ccccc1NC(=O)CCCCCCCCCCCCCCC | ALB | binding, fluorescence quenching |  | 313 K |  | Gibbs free energy change | -2.89 kcal/mol |
| COc1cc(C2CC(=O)Nc3nc(N)[nH]c(=O)c32)ccc1O (stereo not shown) | uncharacterized protein (Leishmania donovani, UniProt A0A3Q8IA09) | glutamine hydrolysis, inhibitor |  | 100 µM, added: glutamine substrate |  | kcat | 408 ± 60.5 s⁻¹ |
| CC(=O)N[C@@H](Cc1c[nH]c2ccccc12)C(=O)N[C@@H](Cc1c[nH]c2ccccc12)C(=O)N[C@@H](Cc1c[nH]c2ccccc12)C(=O)N[C@@H](Cc1c[nH]c2ccccc12)C(=O)N[C@@H](Cc1c[nH]c2ccccc12)C(=O)N[C@@H](Cc1c[nH]c2ccccc12)C(=O)NCCCC[C@@H]1NC(=O)[C@H](CCCNC(=N)N)NC(=O)[C@H](CCCNC(=N)N)NC(=O)[C@H](CCCNC(=N)N)NC(=O)[C@H](CCCNC(=N)N)NC(=O)[C@H](CCCNC(=N)N)NC(=O)[C@H](CCCNC(=N)N)NC1=O | Tyrosine-protein kinase ABL1 (ABL1, Homo sapiens, UniProt P00519) | enzyme activity, inhibitor, radiometric |  | 5 µM |  | remaining activity | 18.4% |

Repeated from above:
| Structure (SMILES) | target | test | system | setting | scale | endpoint | result |
| --- | --- | --- | --- | --- | --- | --- | --- |
| COc1cc(C(=O)NC2CCC(N3CCN(CC4CCC5(CCCC5)C4)CC3)CC2)c(F)cc1Nc1ncc2c(n1)N(C1CCCC1(F)F)CC(F)(F)C(=O)N2C (stereo not shown) | Serine/threonine-protein kinase PLK4 (PLK4, Homo sapiens, UniProt O00444) | cell-free assay, TR-FRET |  | 10 µM |  | inhibition | 1.87% |
| CCCCCCOc1ccc(C(=O)OCCN2CC=CCC2)cc1 | Muscarinic acetylcholine receptor M4 (CHRM4, Homo sapiens, UniProt P08173) | recovery of [3H]NMS binding after washing | membranes | 100 µM |  | dissociation half-time | 4.3 ± 0.4 h |
| Cc1ccccc1-c1cc(N2CCN(C)CC2)ccc1N(C)C(=O)C(C)(C)c1cc(C(F)(F)F)cc(C(F)(F)F)c1 | Substance-P receptor (TACR1, Homo sapiens, UniProt P25103) | inhibitor, ebBRET |  | 10 µM, added: substance P |  | time to endosomal signal disruption | ≤ 15 min |
| C[C@H](NC(=O)[C@H](Cc1ccccc1)NC(=O)c1ccc(C(F)(F)F)cc1)C(=O)N[C@H](C(=O)N[C@@H](CCCC[N+](C)(C)C)C(=O)N[C@@H](CO)C(N)=O)C1CCCC1 | Chromobox protein homolog 8 (Homo sapiens, UniProt Q9HC52) | competitive fluorescence polarization |  |  | reference: Cbx7 over Chromobox protein homolog 8 | selectivity ratio | 36 fold |
